Measured values gathered from unrelated publications.
± gives the spread as reported.
CDC48A: CDC48A 1-463 (Arabidopsis thaliana, UniProt P54609)
Sequence of UniProt P54609 (whole entry, looked up): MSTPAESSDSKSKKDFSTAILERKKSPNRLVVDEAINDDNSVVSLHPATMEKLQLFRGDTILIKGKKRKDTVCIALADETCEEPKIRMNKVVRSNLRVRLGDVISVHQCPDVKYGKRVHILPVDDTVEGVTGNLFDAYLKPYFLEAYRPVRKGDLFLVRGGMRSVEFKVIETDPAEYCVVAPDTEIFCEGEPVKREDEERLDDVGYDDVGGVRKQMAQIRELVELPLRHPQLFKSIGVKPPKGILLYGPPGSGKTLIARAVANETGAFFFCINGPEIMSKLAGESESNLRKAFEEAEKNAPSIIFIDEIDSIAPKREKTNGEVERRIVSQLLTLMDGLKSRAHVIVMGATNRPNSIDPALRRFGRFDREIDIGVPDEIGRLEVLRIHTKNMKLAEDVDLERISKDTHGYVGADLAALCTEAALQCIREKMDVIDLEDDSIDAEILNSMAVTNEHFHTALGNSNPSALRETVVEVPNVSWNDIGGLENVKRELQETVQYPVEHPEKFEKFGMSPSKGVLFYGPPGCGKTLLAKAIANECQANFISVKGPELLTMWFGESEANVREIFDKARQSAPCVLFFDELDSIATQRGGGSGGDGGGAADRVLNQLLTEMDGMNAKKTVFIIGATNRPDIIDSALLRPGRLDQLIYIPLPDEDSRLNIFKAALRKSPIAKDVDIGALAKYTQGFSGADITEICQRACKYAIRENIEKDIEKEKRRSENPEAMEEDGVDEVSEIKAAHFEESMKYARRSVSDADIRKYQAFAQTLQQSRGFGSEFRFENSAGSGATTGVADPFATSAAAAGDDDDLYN
B1: PUX5 (Arabidopsis thaliana, UniProt Q7Y175); chain MATETNENLINSFIEITSSSREEANFFLESHTWNLDAAVSTFLDNDAAAAAEPNPTGPPPPSSTIAGAQSPSQSHSPDYTPSETSPSPSRSRSASPSSRAAPYGLRSRGGAGENKETENPSGIRSSRSRQHAGNIRTFADLNRSPADGEGSDSDEANEYYTGGQKSGMMVQDPKKVKDVDELFDQARQSAVDRPVEPSRSASTSFTGAARLLSGEAVSSSPQQQQQEQPQRIMHTITFWLNGFTVNDGPLRGFSDPENAAFMNSISRSECPSELEPADKKIPVHVDLVRRGENFTEPPKPKNPFQGVGRTLGASGSGSSSAPQASSAPMNVAPAPSRGLVVDPAAPTTSIQLRLADGTRLVSRFNNHHTVRDVRGFIDASRPGGSKEYQLLTMGFPPKQLTELDQTIEQAGIANAVVIQKF
B2: DTNB 422-535 (Homo sapiens, UniProt O60941-1); sequence looked up; chain PPTDLSFNFDANKQQRQLIAELENKNREILQEIQRLRLEHEQASQPTPEKAQQNPTLLAELRLLRQRKDELEQRMSALQESRRELMVQLEELMKLLKEEEQKQAAQATGSPHTS
B3: HCK 78-138 (Homo sapiens, UniProt P08631); chain SEDIIVVALYDYEAIHHEDLSFQKGDQMVVLEESGEWWKARSLATRKEGYIPSNYVARVDS
B4: PUX9 390-469 (Arabidopsis thaliana, UniProt Q4V3D3); chain AITLLVRMPDSSRHGRRFLKSDKLKYLFDFIDAAGLVKPGTYRVVRPYPRRAFSIQDGALTFEELSLTNKQEALFLELLV
B5: RelA/NFKB1 190-321; chain 1 NTAELKICRVNRNSGSCLGGDEIFLLCDKVQKEDIEVYFTGPGWEARGSFSQADVHRQVAIVFRTPPYADPSLQAPVRVSMQLRRPSDRELSEPMEFQYLPDTDDRHRIEEKRKRTYETFKSIMKKSPFNGP; chain 2 LKIVRMDRTAGCVTGGEEIYLLCDKVQKDDIQIRFYEEEENGGVWEGFGDFSPTDVHRQFAIVFKTPKYKDVNITKPASVFVQLRRKSDLETSEPKPFLYYPE
B6: PUX7 171-468 (Arabidopsis thaliana, UniProt Q94JZ8); chain LASLYRPPFHLMFQGSFEQAKTTSSSQDKWLLVNLQSTTEFSSHMLNRDTWANDAVSQTIKANFIFWQVYDDTTEGRKVCTYYKLESIPVVLVIDPTTGQRMRMWTGMVDPENLLEDLVPFMDGGPREHFASLSKKRPRGSFSLTPHSKPKEDVAKDEEEEELQRALAASLEDNNMKESSDDQSTIIPEEVAVEAVTSAVLPTFPPLPEEPKGGDRSLQCRVGIRLPNGQRLQRNFLKTDTIQLLWSFCYSQLEESERKKPLKLTQAIPGESKTLEYESNLTLEQSGVANSMISATWE
B7: TNFRSF4 29-170 V53A (Homo sapiens, UniProt P43489); sequence looked up; chain LHCVGDTYPSNDRCCHECRPGNGMASRCSRSQNTVCRPCGPGFYNDVVSSKPCKPCTWCNLRSGSERKQLCTATQDTVCRCRAGTQPLDSYKPGVDCAPCPPGHFSPGDNQACKPWTNCTLAGKHTLQPASNSSDAICEDRD
B8: Atg23 full-length, dimer (yeast, UniProt Q06671); sequence looked up; chain MELNQVLEKKEQILQYLGTLVGLHEKALSDVNSASQVTSIRKDITICLNDLCRINDLLVSHDGLLKREIGSLLRDKQELLELNEREQLLWKERKSWHIKQETDAAPADYVIDKDAIITISSHHRTSLNKYIESVGAENTILSNTDDSDAMIEEVQNAESSADQMIRNYKLLQLSHKQAKSEIIRLETLLRDFKKDNKFIEEELKRQSGRIRSEMGNIDFHLSKIEESKHQLMKRIGFESPLTQEKSLSEKIFNLRLSSADEDYNERQTINMKNFVHMKDLIELKIEDLQEQLMRNKNESSTVLTQRELWLDCQKKVGDLESKLITKLRSSSNSKIPPNEMSEMINSTIQYLNNLLDSSDEKLTTTLISNERDVLSKACEELHSESTTAQDGSSALPSKPIDIHKSHKGSNASSNLKQPSTPSFLVASKSPPKIGISESVVNANKNDAISKKVE
Sequence of UniProt P25963 (whole entry, unmodified, looked up): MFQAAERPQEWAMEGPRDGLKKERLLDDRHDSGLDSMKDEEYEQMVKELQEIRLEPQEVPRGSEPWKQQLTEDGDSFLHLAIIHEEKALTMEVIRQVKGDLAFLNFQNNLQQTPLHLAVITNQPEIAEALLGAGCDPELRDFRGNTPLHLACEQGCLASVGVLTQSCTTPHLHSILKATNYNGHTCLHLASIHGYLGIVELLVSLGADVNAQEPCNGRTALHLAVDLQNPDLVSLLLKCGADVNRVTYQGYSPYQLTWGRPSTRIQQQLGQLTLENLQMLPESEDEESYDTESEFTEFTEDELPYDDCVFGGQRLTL
Sequence of UniProt Q86YC2 (whole entry, unmodified, looked up): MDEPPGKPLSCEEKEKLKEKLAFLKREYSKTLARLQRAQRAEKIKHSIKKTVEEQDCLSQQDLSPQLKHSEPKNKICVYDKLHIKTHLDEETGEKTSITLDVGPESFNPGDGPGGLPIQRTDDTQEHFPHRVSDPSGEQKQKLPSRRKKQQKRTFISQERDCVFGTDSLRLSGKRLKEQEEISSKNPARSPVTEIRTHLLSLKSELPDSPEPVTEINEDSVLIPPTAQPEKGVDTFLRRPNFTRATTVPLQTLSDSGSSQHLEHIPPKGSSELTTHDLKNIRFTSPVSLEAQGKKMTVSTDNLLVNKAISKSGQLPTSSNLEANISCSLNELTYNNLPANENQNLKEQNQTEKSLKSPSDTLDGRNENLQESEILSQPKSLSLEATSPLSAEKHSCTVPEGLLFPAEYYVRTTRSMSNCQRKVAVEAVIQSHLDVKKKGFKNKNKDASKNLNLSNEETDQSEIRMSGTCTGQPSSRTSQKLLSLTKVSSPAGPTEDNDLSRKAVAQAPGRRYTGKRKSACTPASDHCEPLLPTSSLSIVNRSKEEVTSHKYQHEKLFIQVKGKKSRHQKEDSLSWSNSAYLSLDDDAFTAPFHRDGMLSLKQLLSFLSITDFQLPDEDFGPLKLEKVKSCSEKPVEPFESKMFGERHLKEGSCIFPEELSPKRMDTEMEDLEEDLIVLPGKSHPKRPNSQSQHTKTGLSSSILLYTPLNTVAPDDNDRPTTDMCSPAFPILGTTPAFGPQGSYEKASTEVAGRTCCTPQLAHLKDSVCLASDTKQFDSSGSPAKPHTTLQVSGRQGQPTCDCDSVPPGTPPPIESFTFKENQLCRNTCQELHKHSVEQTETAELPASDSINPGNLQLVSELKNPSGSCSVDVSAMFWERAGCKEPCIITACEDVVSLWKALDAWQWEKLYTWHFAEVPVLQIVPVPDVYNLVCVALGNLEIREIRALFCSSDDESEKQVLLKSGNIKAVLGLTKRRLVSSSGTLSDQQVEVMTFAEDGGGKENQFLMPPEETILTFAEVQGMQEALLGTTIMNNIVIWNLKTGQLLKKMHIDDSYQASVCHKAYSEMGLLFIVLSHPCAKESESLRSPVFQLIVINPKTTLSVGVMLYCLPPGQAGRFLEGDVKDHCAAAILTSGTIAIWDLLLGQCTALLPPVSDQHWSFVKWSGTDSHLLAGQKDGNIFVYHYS
Sequence of UniProt P06241 (whole entry, unmodified, looked up): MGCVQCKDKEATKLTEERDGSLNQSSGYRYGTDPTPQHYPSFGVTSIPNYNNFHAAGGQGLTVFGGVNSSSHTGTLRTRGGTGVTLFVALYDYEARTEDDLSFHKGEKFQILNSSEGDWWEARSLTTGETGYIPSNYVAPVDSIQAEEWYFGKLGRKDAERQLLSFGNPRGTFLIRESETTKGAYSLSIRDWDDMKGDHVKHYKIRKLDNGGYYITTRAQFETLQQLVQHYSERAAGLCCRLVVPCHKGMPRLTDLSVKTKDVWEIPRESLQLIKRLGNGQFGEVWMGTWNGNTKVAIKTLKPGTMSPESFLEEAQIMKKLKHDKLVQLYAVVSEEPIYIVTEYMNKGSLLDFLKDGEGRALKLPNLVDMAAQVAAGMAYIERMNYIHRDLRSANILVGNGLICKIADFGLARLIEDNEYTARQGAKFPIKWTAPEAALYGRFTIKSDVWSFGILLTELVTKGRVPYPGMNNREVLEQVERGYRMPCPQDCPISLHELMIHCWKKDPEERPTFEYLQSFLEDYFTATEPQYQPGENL
Sequence of UniProt Q12142 (whole entry, unmodified, looked up): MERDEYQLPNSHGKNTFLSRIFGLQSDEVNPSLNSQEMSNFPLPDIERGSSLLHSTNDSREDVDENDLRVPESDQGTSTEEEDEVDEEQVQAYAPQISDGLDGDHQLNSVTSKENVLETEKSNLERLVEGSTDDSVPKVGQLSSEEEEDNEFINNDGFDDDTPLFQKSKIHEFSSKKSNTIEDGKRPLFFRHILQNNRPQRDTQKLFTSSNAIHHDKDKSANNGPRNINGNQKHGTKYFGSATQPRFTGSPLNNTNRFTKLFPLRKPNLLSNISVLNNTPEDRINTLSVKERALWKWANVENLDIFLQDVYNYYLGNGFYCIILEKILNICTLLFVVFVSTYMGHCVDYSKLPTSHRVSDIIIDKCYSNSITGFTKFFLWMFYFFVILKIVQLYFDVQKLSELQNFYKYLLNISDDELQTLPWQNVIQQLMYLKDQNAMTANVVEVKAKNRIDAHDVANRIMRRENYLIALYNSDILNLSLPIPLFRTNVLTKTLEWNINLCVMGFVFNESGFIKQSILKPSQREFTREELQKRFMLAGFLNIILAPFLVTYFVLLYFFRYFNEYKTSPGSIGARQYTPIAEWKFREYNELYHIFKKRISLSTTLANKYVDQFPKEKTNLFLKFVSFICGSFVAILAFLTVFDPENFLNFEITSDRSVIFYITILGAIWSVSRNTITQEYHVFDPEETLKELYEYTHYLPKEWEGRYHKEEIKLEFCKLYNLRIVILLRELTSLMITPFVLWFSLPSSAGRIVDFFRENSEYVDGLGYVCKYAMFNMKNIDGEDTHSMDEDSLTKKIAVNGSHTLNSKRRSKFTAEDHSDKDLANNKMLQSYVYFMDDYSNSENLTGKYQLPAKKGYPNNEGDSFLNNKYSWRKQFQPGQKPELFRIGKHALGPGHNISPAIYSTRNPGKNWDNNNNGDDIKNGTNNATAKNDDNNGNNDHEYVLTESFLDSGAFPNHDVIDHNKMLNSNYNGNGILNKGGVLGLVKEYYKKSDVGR
Sequence of UniProt P23510 (whole entry, unmodified, looked up): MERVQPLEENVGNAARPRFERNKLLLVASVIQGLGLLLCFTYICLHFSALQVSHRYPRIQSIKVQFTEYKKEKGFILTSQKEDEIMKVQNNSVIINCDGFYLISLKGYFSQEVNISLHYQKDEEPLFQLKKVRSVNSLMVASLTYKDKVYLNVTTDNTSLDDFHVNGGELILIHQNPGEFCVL
Sequence of UniProt F4IXN6 (whole entry, unmodified, looked up): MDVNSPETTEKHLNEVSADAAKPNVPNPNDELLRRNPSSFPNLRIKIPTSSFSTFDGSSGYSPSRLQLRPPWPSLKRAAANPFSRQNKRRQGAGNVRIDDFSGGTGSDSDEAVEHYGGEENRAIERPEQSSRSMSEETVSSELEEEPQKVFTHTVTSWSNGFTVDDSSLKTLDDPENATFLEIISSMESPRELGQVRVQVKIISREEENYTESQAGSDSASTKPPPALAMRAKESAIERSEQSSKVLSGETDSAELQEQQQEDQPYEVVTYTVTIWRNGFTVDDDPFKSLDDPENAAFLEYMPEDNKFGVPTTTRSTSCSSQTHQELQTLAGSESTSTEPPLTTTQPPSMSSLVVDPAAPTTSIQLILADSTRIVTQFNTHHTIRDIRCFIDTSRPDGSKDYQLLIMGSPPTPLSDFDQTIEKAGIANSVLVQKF

With `B1 (PUX5)` the ΔH was -9.61 ± 0.191 kcal/mol (CDC48A; ITC).
For `QEDIIRNIARHLAQVGDSMDRSIPPG (BID 79-104 (Homo sapiens, UniProt P55957); sequence looked up)`, the ΔH was -4.88 ± 0.167 kcal/mol (BCL2L1 1-208 N52D/N66D (Homo sapiens, UniProt Q07817-1); ITC; peptide).
With `KISPPTPKPRPPRPLPVAPGS (PIK3R1 proline-rich region 1 (Homo sapiens))` the ΔH was -7.03 ± 0.263 kcal/mol (FYN 72-142 (Homo sapiens, UniProt P06241); ITC; peptide).
`B2 (DTNB 422-535)` gave a ΔH of -13.6 kcal/mol (DMD 3365-3685 (Homo sapiens, UniProt P11532-1); ITC; 25 °C).
`B3 (HCK 78-138)` has a ΔH of -7.05 ± 0.335 kcal/mol (PIK3R1 80-724 (Homo sapiens, UniProt P27986); ITC).
`PUX6 (Arabidopsis thaliana, UniProt F4IXN6)` gave a ΔH of 2.65 ± 0.12 kcal/mol (CDC48A; ITC).
With `DDRHRIEEKRKRTYETFKSIMKKSPFNGP (Rela 293-321 (Mus musculus, UniProt Q04207); sequence looked up)` the ΔH was -4.3 ± 0.2 kcal/mol (NFKBIA 67-206 (Homo sapiens, UniProt P25963); ITC; peptide; NaCl 150 mM).
`B4 (PUX9 390-469)` gave a ΔH of 1.2 ± 0.0956 kcal/mol (CDC48A; ITC).
For `B5 (RelA/NFKB1 190-321)`, the ΔH was -12 kcal/mol (NFKBIA 67-287 (Homo sapiens, UniProt P25963); ITC).
For `B6 (PUX7 171-468)`, the ΔH was 4.59 ± 0.12 kcal/mol (CDC48A; ITC).
`BRCA1 coiled-coil domain M1400T (Homo sapiens)` gave a ΔH of -1.8 ± 0.3 kcal/mol (PALB2 1-56 (Homo sapiens, UniProt Q86YC2); ITC).
With `B7 (TNFRSF4 29-170 V53A)` the ΔH was -23 kcal/mol (TNFSF4 51-183 (Homo sapiens, UniProt P23510); SPR; van't Hoff).
`LPDTDDRHRIEEKRKRTYETFKSIMKKSPFNGP (Rela 289-321 (Mus musculus, UniProt Q04207); sequence looked up)` gave a ΔH of -3.6 ± 0.4 kcal/mol (NFKBIA 67-206 (Homo sapiens, UniProt P25963); ITC; peptide; NaCl 150 mM).
With `B8 (Atg23 full-length, dimer)` the ΔH was -3.27 kcal/mol (ATG9 864-997 (Saccharomyces cerevisiae, UniProt Q12142); ITC; pH 8, 20 °C, NaCl 150 mM, independent binding model, with: TCEP 0.2 mM).

Repeated from above:
`B4 (PUX9 390-469)` gave a ΔH of 1.2 ± 0.0956 kcal/mol (CDC48A; ITC).
